{"data": "Assay results from different studies", "note": "Compare with care: the assays were run in different laboratories. Several values in a cell are separate wells, animals, samples, runs or records. Numbers after ± are the reported error."}
{"Molecule": "ETTLKSF", "target or system": "Plasmodium falciparum", "assay": "merozoite invasion", "test system": "peptide, 3D7", "setting": "400 µg/mL, 20 h, biotinylated peptide", "quantity": "inhibition", "value": "~48% and 48%"}
{"Molecule": "insulin human", "assay": "measured: GRIA1 mRNA", "test system": "uninfected mouse, brain", "setting": "i.p., dose not given", "scale": "relative to: PBS", "quantity": "fold change", "value": 0.967}
{"Molecule": "oseltamivir carboxylate", "target or system": "Influenza A virus H3N2", "assay": "cytopathic effect, visual CPE score", "test system": "MDCK", "quantity": "EC50", "value": "> 100 µM"}
{"Molecule": "oseltamivir carboxylate", "target or system": "Influenza A virus", "assay": "viral replication, MTS", "test system": "MDCK, H1N1", "quantity": "EC50", "value": "5.4 µM"}
{"Molecule": "maraviroc", "target or system": "human coronavirus OC43", "assay": "virus-induced cell death", "test system": "MRC-5", "quantity": "maximum inhibition", "value": "5.95%"}
{"Molecule": "nonaarginine", "target or system": "PorA peptide pore", "assay": "peptide binding, planar bilayer single-channel recording", "setting": "pH 7.4, -35 mV, cis side, 150 mM KCl", "quantity": "Kd", "value": "6.8 ± 0.7 µM"}
{"Molecule": "oseltamivir carboxylate", "target or system": "Influenza A virus H1N1", "assay": "visual CPE score", "quantity": "EC50", "value": "4 µM"}
{"Molecule": "capreomycin", "target or system": "Mycobacterium tuberculosis", "assay": "resazurin microtiter", "test system": "H37Ra", "setting": "2 weeks, 37 °C", "quantity": "MIC", "value": "2 µg/mL"}
{"Molecule": "aspterric acid", "assay": "hypocotyl length", "test system": "Arabidopsis thaliana Col-0 seeds", "setting": "25 µg/mL, seed germination", "scale": "relative to: water control", "quantity": "inhibition", "value": "98%"}
{"Molecule": "heparin sodium", "test system": "healthy Chinese adult volunteers", "setting": "continuous intravenous infusion, 8 IU/kg/h, 5 days", "quantity": "subjects with AEs leading to discontinuation", "value": "0%"}
{"Molecule": "bovine serum albumin", "target or system": "Mycobacterium tuberculosis", "test system": "H37Rv", "quantity": "MIC", "value": "> 200 µg/mL"}
{"Molecule": "Ro 31-8220", "target or system": "influenza A virus H1N1", "setting": "concentration not given", "quantity": "viral titre", "value": "no effect"}
{"note": "Some of these lines once more:"}
{"Molecule": "capreomycin", "target or system": "Mycobacterium tuberculosis", "assay": "resazurin microtiter", "test system": "H37Ra", "setting": "2 weeks, 37 °C", "quantity": "MIC", "value": "2 µg/mL"}
